# Assay results gathered from unrelated publications.
# Each line is one published result; not all experiments were run side by side.
Structure (SMILES),tested on,assay,system,conditions,how to read,measurement,result
CCC(=O)N1CCC(COCC(=O)N2CCN(c3nc(-c4cnc(N)nc4C(F)F)nc(N4CCOC[C@@H]4C)n3)CC2)CC1,SK-OV-3,"western blot, measured: phospho-PKB/Akt Ser473",,2 h,,IC50,45.9 nM
OCC(O)c1ccc(O)c(O)c1 (racemic),,"binding, equilibrium dialysis LC-MS",,"5 µM, thermostabilized A2AR-BRIL construct","baseline: no-protein control, direction not given",z-scored log2 fold change,0.524
CCCCN1C[C@H](O)[C@@H](O)[C@@H](O)[C@H]1CO,sample H patient fibroblasts,"Gb3 level lowering, LC-MS/MS, measured: Gb3 d18:1/22:0",,216 h,,IC50,21400 nM
C[C@H]1CN(C2COC2)CCN1c1ccc(Nc2cc(-c3ccnc(N4CCn5c(cc6c5CC(C)(C)C6)C4=O)c3CO)cn(C)c2=O)nc1,Ramos,"calcium flux, FLIPR",,4 h preincubation,,IC50,2.94 nM
COc1cc(N2CCC(N3CCN(C)CC3)CC2)ccc1Nc1ncc(Cl)c(Nc2ccccc2P(C)(C)=O)n1,ALK fusion wild-type cell lines,cell viability,,geometric mean over 8 lines,,IC50,10.6 nM
C=CC(=O)N1CCC([C@@H]2CCNc3c(C(N)=O)c(-c4ccc(Oc5ccccc5)cc4)nn32)CC1,TMD8 RAC2 knockout,"calcium flux, FLIPR",,4 h preincubation,,IC50,1.1 nM
C=CC(=O)N1CCC(COCC(=O)N2CCN(c3nc(-c4cnc(N)nc4C(F)F)nc(N4CCOC[C@@H]4C)n3)CC2)CC1,SK-OV-3,"Akt phosphorylation, inhibitor, in-cell western, measured: Akt pSer473",,,,IC50,19.5 nM
Cc1cc(Nc2ncc(Cl)c(Nc3ccccc3S(=O)(=O)C(C)C)n2)c(OC(C)C)cc1C1CCNCC1,"NB1 (ALK amplification, exon 2-3 deletion)",cell viability,,,,IC50,12.3 nM
COc1cccc(C(=O)O)c1N,,"binding, equilibrium dialysis LC-MS",,"5 µM, thermostabilized A2AR-BRIL construct","baseline: no-protein control, direction not given",z-scored log2 fold change,0.305
CNC(=O)c1cc(Oc2ccc(NC(=O)Nc3cc(C(C)(C)C)nn3-c3ccc4ncccc4c3)c(F)c2)ccn1,NLRP3 inflammasome (mouse),,mouse BMDM,10 µM,,inhibition,50.7%
CC1(C)COc2ccc(F)cc2CN2c3nc4c(cnn4cc3OC[C@H]2C(F)F)C(=O)N1,Ba/F3 EML4-ALK variant 1 S1206F,cell viability,,,,IC50,12.3 nM
CC#CC(=O)N1CCC[C@H]1c1nc(-c2ccc(C(=O)Nc3ccccn3)cc2)c2c(N)nccn12,Ramos,"calcium flux, FLIPR",,1 h preincubation,,IC50,65 nM

# Some of these lines once more:
Structure (SMILES),tested on,assay,system,conditions,how to read,measurement,result
CCCCN1C[C@H](O)[C@@H](O)[C@@H](O)[C@H]1CO,sample H patient fibroblasts,"Gb3 level lowering, LC-MS/MS, measured: Gb3 d18:1/22:0",,216 h,,IC50,21400 nM
C=CC(=O)N1CCC([C@@H]2CCNc3c(C(N)=O)c(-c4ccc(Oc5ccccc5)cc4)nn32)CC1,TMD8 RAC2 knockout,"calcium flux, FLIPR",,4 h preincubation,,IC50,1.1 nM
